# Results of several laboratories.
# Numbers after ± are the reported error.
SMILES,tested on,test,system,setting,endpoint,result
Cn1cnc(Cn2c(=O)[nH]/c(=N\c3cc4cn(C)nc4cc3Cl)n(Cc3cc(F)c(F)cc3F)c2=O)n1,,,"human, normal renal function","oral, 375 mg","anaemia TEAE, Mild severity",0%
Nc1ncnc2c1ncn2[C@@H]1O[C@H](CSCc2ccc3ccccc3c2)[C@@H](O)[C@H]1O,Severe acute respiratory syndrome coronavirus 2,"viral replication, outcome no inhibition, N-protein immunofluorescence",Calu-3,200 µM,inhibition,no inhibition
CC[C@H](C)[C@H](NC(=O)[C@H](CC(C)C)NC(=O)[C@H](Cc1c[nH]c2ccccc12)NC(=O)[C@H](CCC(N)=O)NC(=O)[C@@H](NC(=O)[C@H](Cc1ccccc1)NC(=O)[C@H](C)NC(=O)[C@H](CCCCNC(=O)COCCOCCNC(=O)COCCOCCNC(=O)CC[C@H](NC(=O)CCCCCCCCCCCCCCCCCCC(=O)O)C(=O)O)NC(=O)[C@H](CCC(N)=O)NC(=O)[C@H](C)NC(=O)[C@@H](NC(=O)[C@H](CCCCN)NC(=O)[C@H](CC(=O)O)NC(=O)[C@H](CC(C)C)NC(=O)C(C)(C)NC(=O)[C@@H](NC(=O)[C@H](CO)NC(=O)[C@H](Cc1ccc(O)cc1)NC(=O)[C@H](CC(=O)O)NC(=O)[C@H](CO)NC(=O)[C@@H](NC(=O)[C@H](Cc1ccccc1)NC(=O)[C@@H](NC(=O)CNC(=O)[C@H](CCC(=O)O)NC(=O)C(C)(C)NC(=O)[C@@H](N)Cc1ccc(O)cc1)[C@@H](C)O)[C@@H](C)O)[C@@H](C)CC)[C@@H](C)CC)C(C)C)C(=O)N[C@@H](C)C(=O)NCC(=O)NCC(=O)N1CCC[C@H]1C(=O)N[C@@H](CO)C(=O)N[C@@H](CO)C(=O)NCC(=O)N[C@@H](C)C(=O)N1CCC[C@H]1C(=O)N1CCC[C@H]1C(=O)N1CCC[C@H]1C(=O)N[C@@H](CO)C(N)=O,,,"healthy subjects, single ascending dose","0.5 mg, baseline",serum AST,23 ± 6.5 U/L
Cn1c(C(=O)Nc2ccc3c(c2)OCCO3)cc2c(=O)n3ccccc3nc21,Severe acute respiratory syndrome coronavirus 2,"viral replication, inhibitor, qPCR",Vero C1008,1 µM,inhibition,94.1%
Cn1cnc(Cn2c(=O)[nH]/c(=N\c3cc4cn(C)nc4cc3Cl)n(Cc3cc(F)c(F)cc3F)c2=O)n1,Severe acute respiratory syndrome coronavirus 2,viral replication,Vero C1008,4.167 µM,inhibition,100%
NC(=O)c1ncn([C@@H]2O[C@H](CO)[C@@H](O)[C@H]2O)n1,Severe acute respiratory syndrome coronavirus 2,"viral replication, inhibitor",Vero,20 µM,inhibition,12%
Cc1cc2ncc(C(=O)NCC(C)(C)NCC(=O)N3CCC[C@H]3C#N)cn2n1,"Replicase polyprotein 1ab, main protease (rep, Severe acute respiratory syndrome coronavirus 2, UniProt P0DTD1)","reporter gene (mKate2), inhibitor",,20 µM,inhibition,-0.172%
Nc1ncnc2c([C@@H]3N[C@H](CO)[C@@H](O)[C@H]3O)c[nH]c12,Chikungunya virus,viral replication,"HeLa, AF 15561",0.4 µM,inhibition,13.7%
C=C[C@@](C)(/C=C/c1ccc(O)cc1)CCC=C(C)C,Severe acute respiratory syndrome coronavirus 2,cytopathic effect,Vero C1008,0.7812 µM,inhibition,0%
Cc1cc(NC(=O)c2cc3c(=O)n4cccc(C)c4nc3n2C)ccc1Br,Severe acute respiratory syndrome coronavirus 2,"viral replication, inhibitor, qPCR",Vero C1008,10 µM,inhibition,95.6%
CC1=C(/C=C/C(C)=C/C=C/C(C)=C/C(=O)Nc2ccc(O)cc2)C(C)(C)CCC1,Severe acute respiratory syndrome coronavirus 2,"viral replication, inhibitor",,2.5 µM,inhibition,~15%
CCC(CC)COC(=O)[C@H](C)N[P@](=O)(OC[C@H]1O[C@@](C#N)(c2ccc3c(N)ncnn23)[C@H](O)[C@@H]1O)Oc1ccccc1,Severe acute respiratory syndrome coronavirus 2,"viral replication, inhibitor, qPCR",Vero C1008,1 µM,inhibition,94.2%
O=C(/C=C/c1ccc(O)c(O)c1/C=C/c1ccc(O)c(O)c1)O[C@H](Cc1ccc(O)c(O)c1)C(=O)O,Severe acute respiratory syndrome coronavirus 2,cytopathic effect,Vero C1008,25 µM,inhibition,0%

# A few entries again:
SMILES,tested on,test,system,setting,endpoint,result
CCC(CC)COC(=O)[C@H](C)N[P@](=O)(OC[C@H]1O[C@@](C#N)(c2ccc3c(N)ncnn23)[C@H](O)[C@@H]1O)Oc1ccccc1,Severe acute respiratory syndrome coronavirus 2,"viral replication, inhibitor, qPCR",Vero C1008,1 µM,inhibition,94.2%
Cn1cnc(Cn2c(=O)[nH]/c(=N\c3cc4cn(C)nc4cc3Cl)n(Cc3cc(F)c(F)cc3F)c2=O)n1,Severe acute respiratory syndrome coronavirus 2,viral replication,Vero C1008,4.167 µM,inhibition,100%
